Experimental data from different studies.
± marks the error that the study gave.

Compound | tested on | test | test system | setting | scale | quantity | result
COc1cc(C(=O)NCCOCCOCCOCCNC(=O)c2ccc([18F])nc2)ccc1NC(=O)C1NC(CC(C)(C)C)C(C#N)(c2ccc(Cl)cc2F)C1c1cccc(Cl)c1F (stereo not shown) | HepG2 tumour model | – | host not given, brain | 2 h, tumour-bearing | – | tracer uptake | 0.39 %ID/g
Cc1cc(/C=C/C#N)cc(C)c1Nc1nc(Nc2ccc(C#N)cc2)ncc1N | HIV-1 wild type | – | – | – | reference: CC50 over EC50 | therapeutic index | > 25000
COc1cc(O)c2c(c1)/C=C/C[C@H](O)[C@H](O)C(=O)/C=C\C[C@H](C)OC2=O | SARS-CoV-2 USA-WA1/2020 | alamarBlue | Vero E6, infected | 24 h post infection | – | CC50 | 18 µM
CC(C)=CCC/C(C)=C/CC/C(C)=C/CNCCOC1C2CC3CC(C2)CC1C3 (stereo not shown) | Trypanosoma brucei | – | – | – | reference: CC50 HEK293T over IC50 T. brucei | selectivity index | 15
N=C(N)NCCC[C@@H]1NC(=O)[C@H](CCCCNC(=O)CNC(=O)CNC(=O)CNC(=O)CC[C@H](NC(=O)CCOCCOCCOCCOCCNC(=O)CC[C@H](NC(=O)CN2CCN(CC(=O)O)CCN(CC(=O)O)CCN(CC(=O)O)CC2)C(=O)NCCOCCOCCOCCOCCC(=O)N[C@@H](CCC(=O)NCC(=O)NCC(=O)NCC(=O)NCCCC[C@@H]2NC(=O)[C@@H](Cc3ccccc3)NC(=O)[C@H](CC(=O)O)NC(=O)CNC(=O)[C@H](CCCNC(=N)N)NC2=O)C(=O)NCC(=O)NCC(=O)NCC(=O)NCCCC[C@@H]2NC(=O)[C@@H](Cc3ccccc3)NC(=O)[C@H](CC(=O)O)NC(=O)CNC(=O)[C@H](CCCNC(=N)N)NC2=O)C(=O)NCC(=O)NCC(=O)NCC(=O)NCCCC[C@@H]2NC(=O)[C@@H](Cc3ccccc3)NC(=O)[C@H](CC(=O)O)NC(=O)CNC(=O)[C@H](CCCNC(=N)N)NC2=O)NC(=O)[C@@H](Cc2ccccc2)NC(=O)[C@H](CC(=O)O)NC(=O)CNC1=O [indium-111 labelled] | – | – | female athymic nude mice, intestine | intravenous, 3 µCi, 4 h, U-87 MG glioma xenograft | – | tissue uptake | 5.18 ± 1.39 %ID/g
CN(C)CC1CCCCC1(O)c1cccc(O)c1 (stereo not shown) | P-glycoprotein | – | Caco-2 TC7 | 10 µM, 3 h, pH 7.4, added: cyclosporin A 10 µM | – | Papp A to B | 12.8 ± 0.9 ×10⁻⁶ cm/s
CC[C@H](C)C(=O)N1CCC(NC(=O)Nc2ccc(OC(F)(F)F)c(F)c2)CC1 | – | – | healthy volunteers | oral, 0.5 mg single dose, 14 (unit not given) | – | subjects with dyspnoea TEAE | 0%
COc1ccc(CNc2nc(N3CCC[C@H]3CO)ncc2C(=O)NNC(=O)c2cnc(N3CCC[C@H]3CO)nc2NCc2ccc(OC)c(Cl)c2)cc1Cl | Salmonella typhimurium | – | TA98 | 500 µg/plate, 48 h, added: rat liver S9 | – | revertant count | 30 ± 3
O=C(O)c1cc[c]([Hg][Cl])cc1 | Trypanosoma brucei | viability, flow cytometry | bloodstream form | 24 h | – | EC50 | 2 µM
COc1ccc(CNc2nc(N3CCC[C@H]3CO)ncc2C(=O)NN)cc1Cl | Salmonella typhimurium | – | TA1535 | 500 µg/plate, 48 h, added: rat liver S9 | – | revertant count | 53 ± 3
CCC(=O)N(C)c1ccc(Cl)c(Cl)c1 | Salmonella typhimurium | Ames test | TA98 | 0.10 mg/plate, without S9 activation | – | revertants | 19 ± 6.4 revertants/plate
CN[C@](C)(C[18F])C(=O)O | MDA-MB-468 tumour model | – | host not given, pancreas | 15 min, tumour-bearing | – | tracer uptake | 50 %ID/g
CC(C)=CCNCCOC1C2CC3CC(C2)CC1C3 (stereo not shown) | Trypanosoma brucei | – | – | – | reference: CC50 HEK293T over IC50 T. brucei | selectivity index | 6
CCOc1ccc(C(=O)N2c3ccc(F)cc3[C@@H](Nc3ccccc3)C[C@H]2C)cc1 | Aedes albopictus | – | – | 1 µM, 3 days, second-instar larvae | – | mortality | 47%
CC(C)=CCC/C(C)=C/CNCCOC1C2CC3CC(C2)CC1C3 (stereo not shown) | Trypanosoma brucei | – | – | – | reference: CC50 HEK293T over IC50 T. brucei | selectivity index | 4.9
CC(=NCc1ccccc1)c1c(C)cc(=O)n(O)c1O | hepatitis B virus | viral replication, qPCR | HepDES19 genotype D | – | reference: CC50 over EC50 | selectivity index | 0.6

Some of these lines once more:
Compound | tested on | test | test system | setting | scale | quantity | result
COc1cc(O)c2c(c1)/C=C/C[C@H](O)[C@H](O)C(=O)/C=C\C[C@H](C)OC2=O | SARS-CoV-2 USA-WA1/2020 | alamarBlue | Vero E6, infected | 24 h post infection | – | CC50 | 18 µM
